Measurements from different studies.
Every numbered part comes from another study and shows a few of its results, in no order. Substitutions count along the parent as printed.

Sample 1
Target: Interferon regulatory factor 5, full length, phosphomimetic (IRF5, Homo sapiens, UniProt Q13568-2, residues 1-514, K96S/S451D/S453D/S456D/S462D)
Method: protein-binding microarray
Molecule type: double-stranded DNA, one strand shown
Sample: in vitro
Tested at: 250 nM
Notes: 60-bp whole probe
Added: salmon DNA 0.4 mg/ml
Reference: random background probes
Direction: higher = stronger binding
All sequences stand within: GCCTAGCAC … GTCTTGATTCGCTTGACGCTGCTG
`AACTTTCTCTGCTCTTTTCAAGTGCTA` gave a log fluorescence of 3.25 z-score.
With `CTGGTCTCCGGTGTTTCCTAGTGCTAG` the log fluorescence was -0.162 z-score.
`TTAGGTATCGGTTTCGGTTAGTGCTAG` has a log fluorescence of 11.1 z-score.
For `GAGGGTCTCCTTCTCCTGACGTGCTAG`, the log fluorescence was -0.485 z-score.
`GACGTACTGCTACTGCTGACGTGCTAG` has a log fluorescence of -0.432 z-score.
`TTTTCCAGAGGCCCAGCCAGGTGCTAG` has a log fluorescence of 0.139 z-score.
With `GACGGTCTCCTGCTGCTGACGTGCTAG` the log fluorescence was -0.348 z-score.
The log fluorescence of `GACGGTGTCGGTTTCGGGACGTGCTAG` is reported as 3.33 z-score.
`GTCGAACTGGGGACTGGAGACGTGCTA` gave a log fluorescence of -0.706 z-score.
`TTAGGACTGCTTATCCTTGAGTGCTAG` has a log fluorescence of -0.265 z-score.
`CATTCTCTGCTTCTGTATGGGTGCTAG` gave a log fluorescence of 0.524 z-score.
The log fluorescence of `TCAATTAGAATTTTCATACTGTGCTAG` is reported as 1.14 z-score.
With `TTAGGTATCCTTCTCTTTTAGTGCTAG` the log fluorescence was 0.681 z-score.
The log fluorescence of `TCATGGCTGACTTTGGAACTGTGCTAG` is reported as -0.392 z-score.
With `GACGAACTGAAACTGGAGACGTGCTAG` the log fluorescence was 1.43 z-score.
`AATCTTTTCACTTTCTTTAAGTGCTAG` has a log fluorescence of 4.25 z-score.
The log fluorescence of `TTAGGACTGCTTCTCCGTTAGTGCTAG` is reported as -0.068 z-score.
The log fluorescence of `AATATTATAACACTCTTCTTGTGCTAG` is reported as 0.808 z-score.
For `GACGATTTCAGTTCCAAGACGTGCTAG`, the log fluorescence was 1.31 z-score.

Sample 2
Target: Histone acetyltransferase KAT6A, winged helix 2, GST fusion (KAT6A, Homo sapiens, UniProt Q92794, residues 85-181)
Method: protein binding microarray
Molecule type: double-stranded DNA, one strand shown
Sample: in vitro
Tested at: not given
Notes: 8-mer, flanks averaged, mean of 2 arrays, mostly near background
Reference: not given
Direction: higher = stronger binding
Residues (chain): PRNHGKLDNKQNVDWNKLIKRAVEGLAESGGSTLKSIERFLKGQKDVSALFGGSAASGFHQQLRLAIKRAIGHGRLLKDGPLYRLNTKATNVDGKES
`AAATCTGT` gave an E-score of -0.167.
For `CCGCACCA`, the E-score was 0.184.
`ATCCTAGG` gave an E-score of -0.0553.
`CGACATTC` has an E-score of -0.135.
For `GCTTTCAC`, the E-score was 0.0419.
`ATCTAGGG` has an E-score of -0.198.
For `TACCGAGA`, the E-score was -0.106.
`ACGATGGC` gave an E-score of -0.0918.
The E-score of `GAGCATGC` is reported as -0.004.
`CCCATGAG` has an E-score of -0.115.
The E-score of `AAGTCGGG` is reported as -0.0473.
`CCACGGTC` has an E-score of -0.16.
The E-score of `GAGAACAA` is reported as 0.162.
For `GCAGGTGA`, the E-score was 0.0699.
`CTCGTTCA` has an E-score of 0.0253.
With `ATCACTCC` the E-score was -0.0806.
`GCTCAATA` gave an E-score of -0.0518.
The E-score of `AATTATTA` is reported as 0.148.
The E-score of `AGGGACGA` is reported as 0.0839.
`AGTTACAA` has an E-score of 0.0259.
For `AGGCTCAG`, the E-score was -0.037.
`CACACAAC` has an E-score of -0.0467.
For `ATCGGAAG`, the E-score was -0.0462.
With `AAGACGGC` the E-score was 0.0115.

Sample 3
Target: CCNE1, cyclin fold, Cln2 fusion (human)
Method: yeast growth competition, sequencing
Sample: yeast
Notes: strong parent motif
Reference: not given
Direction: higher = stronger binding
Parent: INSM1 docking peptide (human); PKAIRKLHFEDEV
For `PKAIRKLHFEDIV [E12I]`, “normalised enrichment score” read 3.87.
For `PKAITKLHFEDEV [R5T]`, “normalised enrichment score” read 0.122.
For `PKASRKLHFEDEV [I4S]`, “normalised enrichment score” read 1.97.
For `PKAYRKLHFEDEV [I4Y]`, “normalised enrichment score” read 1.45.
`PKAIRRLHFEDEV [K6R]`: “normalised enrichment score” 4.54.
Under “normalised enrichment score”, `PKAIRMLHFEDEV [K6M]` is recorded as 3.01.
Under “normalised enrichment score”, `PKAIRKLHFEDTV [E12T]` is recorded as 3.75.
`PKAIRKLHFGDEV [E10G]`: “normalised enrichment score” 4.64.
`PKEIRKLHFEDEV [A3E]`: “normalised enrichment score” 0.406.
`PKAVRKLHFEDEV [I4V]` — result for “normalised enrichment score”: 5.58.
Under “normalised enrichment score”, `PKAIRKLCFEDEV [H8C]` is recorded as 5.77.
`PKHIRKLHFEDEV [A3H]`: “normalised enrichment score” 5.08.
`PKAIRKLVFEDEV [H8V]`: “normalised enrichment score” 5.49.
For `PDAIRKLHFEDEV [K2D]`, “normalised enrichment score” read 2.88.
`PKAIRKRHFEDEV [L7R]`: “normalised enrichment score” 0.182.
For `PTAIRKLHFEDEV [K2T]`, “normalised enrichment score” read 4.84.
`PKMIRKLHFEDEV [A3M]`: “normalised enrichment score” 1.09.
`PKAIRKEHFEDEV [L7E]`: “normalised enrichment score” -0.0737.
For `PKAIRKLHFELEV [D11L]`, “normalised enrichment score” read 3.3.
`PKAIRKLHFEDLV [E12L]`: “normalised enrichment score” 3.67.

Sample 4
Target: RNA binding protein fox-1 homolog 2, RRM domain, GST-SBP tag (RBFOX2, Homo sapiens, UniProt O43251-10, residues 100-194)
Method: RNA Bind-n-Seq
Molecule type: RNA
Sample: in vitro
Tested at: 365 nM
Notes: natural RNA segment, single round, ends assumed
Reference: no-protein control
Direction: higher = stronger binding
All sequences stand within: GGGAGUUCUACAGUCCGACGAUC … UGGAAUUCUCGGGUGCCAA
Residues (chain): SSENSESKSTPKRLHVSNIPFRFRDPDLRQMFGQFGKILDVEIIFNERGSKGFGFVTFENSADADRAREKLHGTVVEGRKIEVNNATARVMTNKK
Under “RBNS enrichment (R)”, `CAGACAAGGAACUUGCUGAAAGGCCAACCAUUUCAGGAUCAGUCAAAGGCAGCAAGCAGAUAGACUCAAGGUGUGUGAAAGAUGUUAUACACCAGGAGCUGCCACUGCAU` is recorded as 0.198.
`UGCCAGUGAGACAUCGUAUCUGUGCUUAGUCACUGAAGUGAGAACAUACUCCCGCCCCAAGGGAGGCUUCUCUCCAUCAGGGUGGUACACGGGCAACAAAGUAGGGAUUU` — result for “RBNS enrichment (R)”: 0.242.
`GGGUGCUCAAUUGCUGCUCACGUCUGCUGCAACCUGAAGCUUGCAUCUCAGCCAGCAGAUCUGCUCCCUUCUGGGACCCAGGCUUCAGUGUCACACGGUCCUUGGCUAUG` — result for “RBNS enrichment (R)”: 0.28.
Under “RBNS enrichment (R)”, `CCCCUGUCCCCACUCCCACCCCCUAGGGUCCUUGCUCCCAGUAUCUUCCUACAGGGAAGAAGAGCAACCCUCAGCAGCCCUCUUGCCCCUCCAUGGGGUGAAGCCACACU` is recorded as 0.394.
For `GAGUCUAGUAAGUGUCUCUAGCCAGGCUUGUCAGUUGUGCAGGAAACAAGGCCUGGUCCUAGCAAACCUUAGCAUAUCUUCCCUUUUUAUUAUAAAUGGGUGGUUGUUUG`, “RBNS enrichment (R)” read 0.576.
`CACAAUUUUCUAAAGAUGGUUUGGGCUUCCUUACCUCCCAGUGUGAAGUGUUUCAAAUGUCUGUCAGUUCUCUUGCACGGUCCUAAUAAAAGUGAAAGCCCUCUGUCACG`: “RBNS enrichment (R)” 0.544.
Under “RBNS enrichment (R)”, `UGGACACCAGUGACCAUGCACAGUUGUGUUCCUUGCAUUCUAAGUCAGUGGAGGGAAGCAGAGCUUUGAGUGACACACGAGUGUUGGGGUUUCCUGCUGCCUGCCCUGGC` is recorded as 0.755.
For `GAGCUGUGGCUUACUUGCUGUCUUCACCAGGUUCAAGCUCCGUGGGCCACACUGCUGCUGUGCCAAGAAGGUGUACAGCCUCCCCAGGAUGGGGCCUCAUACAACCCUUC`, “RBNS enrichment (R)” read 0.339.

Some of these lines once more (sample 2):
The E-score of `GAGCATGC` is reported as -0.004.
`CCCATGAG` has an E-score of -0.115.
The E-score of `AAGTCGGG` is reported as -0.0473.
`CCACGGTC` has an E-score of -0.16.
The E-score of `GAGAACAA` is reported as 0.162.
For `GCAGGTGA`, the E-score was 0.0699.
`CTCGTTCA` has an E-score of 0.0253.
With `ATCACTCC` the E-score was -0.0806.
`GCTCAATA` gave an E-score of -0.0518.
The E-score of `AATTATTA` is reported as 0.148.
The E-score of `AGGGACGA` is reported as 0.0839.
